Assay results collected from several papers.
Parts stem from different laboratories: compare values within a part only.

Sample 1 — method: aptamer microarray, sandwich; molecule type: DNA with 2'F-ANA; matrix: in vitro; tested at: 200 nM; added: Cy3 exosite-II aptamer, 400 nM; reading: higher = stronger binding; oligonucleotide: GGTTGGTGTGGTTGG
Target: Prothrombin, mature alpha-thrombin (F2, Homo sapiens, UniProt P00734)
Setting: whole 15-mer aptamer, many near background
Modification	mean fluorescence intensity [a.u.]
2'F-ANA at 3 4 5 8 9 10 12 13 15	90.2
2'F-ANA at 2 9 10 12 15	177
2'F-ANA at 2 3 4 5 6 7 11 13 15	92.4
2'F-ANA at 1 3 4 5 6 7 9 10 14 15	46.8
2'F-ANA at 1 4 7 9 10 12 13 14	45.9
2'F-ANA at 2 4 6 7 8 14	134
2'F-ANA at 2 3 4 5 6 9 10 12 13	52.5
2'F-ANA at 2 4 6 7 9 11 13 14	70.2
2'F-ANA at 1 3 4 5 6 7 9 12	130
2'F-ANA at 5 6 10 11 13 14 15	66.2
2'F-ANA at 2 4 6 9 10	91.1
2'F-ANA at 3 10 15	589
2'F-ANA at 1 3 6 7 8 11 12 13 14 15	108
2'F-ANA at 2 4 5 7 8 9 10 11 13 14 15	48.8
2'F-ANA at 4 6 7 8 10 11 13 14 15	54
2'F-ANA at 2 5 7 8 11 12 14	47
2'F-ANA at 1 9 13 14	53.6
2'F-ANA at 1 4 5 8 10 11 12 14 15	48.1
2'F-ANA at 1 2 4 5 6 7 9 10 13 14 15	52.7
2'F-ANA at 2 4 7 11 12 14	152

Sample 2 — method: RNAcompete; molecule type: RNA; matrix: in vitro; tested at: 20 nM; setting: 7-mer, probes averaged, single round; reference: mean of 7-mers; reading: higher = stronger binding
Target: PABPC1L2, full length, GST fusion (mouse, UniProt A0ABA7IW68)
Residues (chain): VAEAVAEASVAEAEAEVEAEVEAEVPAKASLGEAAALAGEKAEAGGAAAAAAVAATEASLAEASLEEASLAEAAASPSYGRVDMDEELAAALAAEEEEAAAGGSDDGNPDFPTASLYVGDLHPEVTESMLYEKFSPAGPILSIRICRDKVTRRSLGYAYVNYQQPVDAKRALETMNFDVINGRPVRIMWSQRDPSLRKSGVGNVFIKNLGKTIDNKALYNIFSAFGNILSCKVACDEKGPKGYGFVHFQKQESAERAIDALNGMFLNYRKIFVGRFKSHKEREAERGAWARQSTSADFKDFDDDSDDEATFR
Oligonucleotide	7-mer Z-score
CAAACUG	0.149
UCGGGCG	-0.0264
AACGUUA	-0.188
CUAUCCC	-0.373
GCUAUCC	-0.325
AAUCUUU	-0.0736
GACACCA	-0.124
CAGAAGC	-0.0989
UUCUUUU	-0.139
GAGACCG	0.066
AAUCUAC	0.00979
ACAGGGG	0.425

Sample 3 — method: RNA Bind-n-Seq; molecule type: RNA; matrix: in vitro; tested at: 200 nM; setting: whole 134-nt RNA, ends assumed; added: 150 mM LiCl; reference: input library; reading: higher = stronger binding; library: 7-deaza-guanosine replaces G
Target: Fragile X messenger ribonucleoprotein 1, C-terminal low-complexity region (Fmr1, Mus musculus, UniProt P35922)
Oligonucleotide	log2 enrichment
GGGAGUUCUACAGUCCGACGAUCCCUCAAGUCCUGUGCUACACAUCGUAUGUACCGAAUCGGCCGGCCGGCCGGGGAAAGUAUUAUGUUACGCCGUUCGGAUCUGCACUUCCAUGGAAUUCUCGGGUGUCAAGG	0.0491
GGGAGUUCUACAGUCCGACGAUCAGUCCUGUGCUACACAUCGUAUGUACCGAAUCGGGGCCCCGGCCCCGGGGCCCCGGGGAAAGUAUUAUGUUACGCCGUUCGGAUCUGCACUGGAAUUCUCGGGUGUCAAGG	-1.71
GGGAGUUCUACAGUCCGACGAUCCCUCAAGUCCUGUGCUACACAUCGUAUGUACCGAAUCGGGGAGGGGAGGGAGGAAAGUAUUAUGUUACGCCGUUCGGAUCUGCACUUCCAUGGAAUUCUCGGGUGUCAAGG	-1.23
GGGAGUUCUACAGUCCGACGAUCCUGUGCUACACAUCGUAUGUACCGAAUCGGCCCCCCCGGGGCCCCCCCGGCCCCCCCGGGGAAAGUAUUAUGUUACGCCGUUCGGAUCUGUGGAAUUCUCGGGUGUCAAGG	-1.28
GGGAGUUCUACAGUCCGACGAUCGUCCUGUGCUACACAUCGUAUGUACCGAAUCAAACCCCCCCAAACCCCCAAACCCAAAAAAGUAUUAUGUUACGCCGUUCGGAUCUGCACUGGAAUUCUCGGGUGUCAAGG	0.834
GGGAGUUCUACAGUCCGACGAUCAAGUCCUGUGCUACACAUCGUAUGUACCGAAUCGGGGCCCCGGGCCCCGGCCCCGGAAAGUAUUAUGUUACGCCGUUCGGAUCUGCACUUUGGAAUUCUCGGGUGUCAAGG	-3.2
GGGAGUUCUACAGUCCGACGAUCUGUGCUACACAUCGUAUGUACCGAAUCGGGGUUUUUGGGGAAAAAAAGGGGUUUUUUUGGGGAAAGUAUUAUGUUACGCCGUUCGGAUCUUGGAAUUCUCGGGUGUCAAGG	-0.982
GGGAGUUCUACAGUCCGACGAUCCUCAAGUCCUGUGCUACACAUCGUAUGUACCGAAUCGGUGGAAAGGAAAAAGGAAAGUAUUAUGUUACGCCGUUCGGAUCUGCACUUCCAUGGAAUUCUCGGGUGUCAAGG	-0.262

Sample 4 — method: protein-binding microarray; molecule type: double-stranded DNA, one strand shown; matrix: in vitro; tested at: 2200 nM top; setting: 60-bp whole probe; added: salmon DNA 0.4 mg/ml; reference: random background probes; reading: higher = stronger binding; constant ends, left off below: GCCTAGCAC … GTCTTGATTCGCTTGACGCTGCTG
Target: Interferon regulatory factor 7, full length, phosphomimetic (IRF7, Homo sapiens, UniProt Q92985, residues 1-503, S471D/S472D/S475D/S476D/S477D/S483D/S484D/S487D)
UniProt Q92985, sequence (whole entry, unmodified, looked up): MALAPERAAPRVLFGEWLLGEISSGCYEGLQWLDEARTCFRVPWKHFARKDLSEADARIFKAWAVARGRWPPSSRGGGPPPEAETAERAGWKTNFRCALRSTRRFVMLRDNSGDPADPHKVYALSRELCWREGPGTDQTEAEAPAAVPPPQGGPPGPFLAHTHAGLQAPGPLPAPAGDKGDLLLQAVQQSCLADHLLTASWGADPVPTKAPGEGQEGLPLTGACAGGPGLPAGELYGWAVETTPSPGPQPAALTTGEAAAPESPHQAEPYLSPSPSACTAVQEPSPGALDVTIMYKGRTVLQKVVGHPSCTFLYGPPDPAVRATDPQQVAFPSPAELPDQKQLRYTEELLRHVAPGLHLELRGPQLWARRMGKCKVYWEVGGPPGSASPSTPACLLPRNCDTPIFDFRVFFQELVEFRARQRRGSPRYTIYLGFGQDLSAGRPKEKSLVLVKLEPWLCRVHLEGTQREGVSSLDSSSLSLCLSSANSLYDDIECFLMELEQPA
Oligonucleotide	fitted relative affinity [z-score]
TTAGATAGCGGGTATCGATTAGTGCTA	-0.341
GACGATTTCGGGTATCCAGACGTGCTA	2.89
AGCCGAACAGCAATCGGATGGTGCTAG	-0.449
TTAGGACTTGGGTATCGGTTAGTGCTA	-0.0483
AACGGACTGGGGACTGGGGACGTGCTA	-0.568
TTAGGACTGGACACTGGGTAAGTGCTA	-0.793
TTAGTTTTCAGACTGGATTAGTGCTAG	0.884
GTGGGACCCATGAACACTCAGTGCTAG	-0.446
TCATTTTTTGGAATGTCACTGTGCTAG	1.47
TTAGATTTCAATTCCGATTAGTGCTAG	0.773
TTAGATTTCAGTCTCGTTTAGTGCTAG	1.4
GACGGTTTCGGGTTTCGGCACGTGCTA	8.73
TGTGCTTTCCTCGTGATGCTGTGCTAG	1.69
ATGTTTTTCATTTTGTTCATGTGCTAG	4.54
TCAATATTGAGACTCATACTGTGCTAG	0.238
GACGAACTGAGACTGGAAACGTGCTAG	-0.154
GACGATTTCAGTAGCGAGACGTGCTAG	0.274
GACGATTTCACACTGGAGACGTGCTAG	0.904
TTAGATATCGAGACTGGATTAGTGCTA	-0.52

A few entries again (sample 1):
Modification	mean fluorescence intensity [a.u.]
2'F-ANA at 2 4 6 7 9 11 13 14	70.2
2'F-ANA at 3 10 15	589
2'F-ANA at 3 4 5 8 9 10 12 13 15	90.2
2'F-ANA at 2 3 4 5 6 7 11 13 15	92.4
2'F-ANA at 4 6 7 8 10 11 13 14 15	54
2'F-ANA at 1 2 4 5 6 7 9 10 13 14 15	52.7
2'F-ANA at 1 3 6 7 8 11 12 13 14 15	108
